Results of several laboratories.
Every numbered part comes from another study and shows a few of its results, in no order. Positions count from the first letter of the parent shown.

Study 1
Target: Sal-like protein 4, full length isoform A (SALL4, Homo sapiens, UniProt Q9UJQ4, residues 1-1053)
Chain of UniProt Q9UJQ4 (whole entry, looked up): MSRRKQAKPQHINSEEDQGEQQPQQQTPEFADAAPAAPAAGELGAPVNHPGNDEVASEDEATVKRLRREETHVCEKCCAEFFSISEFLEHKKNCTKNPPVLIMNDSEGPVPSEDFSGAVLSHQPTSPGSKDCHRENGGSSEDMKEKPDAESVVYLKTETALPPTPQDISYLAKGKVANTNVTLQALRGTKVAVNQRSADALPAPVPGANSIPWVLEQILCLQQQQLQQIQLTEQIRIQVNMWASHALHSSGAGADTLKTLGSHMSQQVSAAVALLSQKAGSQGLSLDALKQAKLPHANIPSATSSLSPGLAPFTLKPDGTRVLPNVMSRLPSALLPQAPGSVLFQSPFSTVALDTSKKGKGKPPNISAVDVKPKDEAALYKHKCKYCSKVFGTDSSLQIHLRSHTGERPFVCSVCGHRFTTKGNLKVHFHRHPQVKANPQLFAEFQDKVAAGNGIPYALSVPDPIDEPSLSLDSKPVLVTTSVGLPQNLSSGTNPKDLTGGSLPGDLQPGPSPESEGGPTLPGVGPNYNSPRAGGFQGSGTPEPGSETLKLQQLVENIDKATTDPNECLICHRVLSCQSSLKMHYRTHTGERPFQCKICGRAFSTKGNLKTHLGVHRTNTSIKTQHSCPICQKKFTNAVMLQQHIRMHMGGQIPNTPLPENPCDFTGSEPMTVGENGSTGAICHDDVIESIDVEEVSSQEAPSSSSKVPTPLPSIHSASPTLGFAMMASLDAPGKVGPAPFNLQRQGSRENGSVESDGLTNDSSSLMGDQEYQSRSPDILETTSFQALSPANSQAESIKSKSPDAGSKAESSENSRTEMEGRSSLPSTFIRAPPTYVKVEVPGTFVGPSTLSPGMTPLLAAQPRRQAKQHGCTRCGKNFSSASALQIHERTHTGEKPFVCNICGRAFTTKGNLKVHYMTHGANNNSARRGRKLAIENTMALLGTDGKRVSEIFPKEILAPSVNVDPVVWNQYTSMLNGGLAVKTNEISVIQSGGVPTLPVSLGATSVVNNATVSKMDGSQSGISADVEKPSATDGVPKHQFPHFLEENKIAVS
Technique: universal PBM
Molecule type: double-stranded DNA, one strand shown
Sample: in vitro
Tested at: 600 nM
Notes: 8-mer, flanks averaged, mean of replicates
Reading: higher = stronger binding
| Sequence | E-score |
| --- | --- |
| CTTTTACC | 0.0118 |
| CGAGGGTC | -0.371 |
| TAGTGTAA | 0.282 |
| AATTCCAG | -0.0233 |
| GCCACTCC | -0.175 |
| ACGGATAT | 0.237 |
| CGACAGAC | -0.232 |
| TCCTGAGA | 0.0243 |
| GCTATCAC | -0.0424 |
| GCTCGACA | -0.161 |
| AGAAAAGC | -0.027 |
| CTGGTGTC | -0.206 |
| AGAGTTAA | 0.127 |
| AATGGGCT | -0.121 |
| AATGACTC | 0.11 |
| CGTGGACC | -0.365 |
| GTGGAAAC | -0.014 |
| CAGTTACC | -0.0661 |

Study 2
Target: Interferon regulatory factor 5, full length, phosphomimetic (IRF5, Homo sapiens, UniProt Q13568-2, residues 1-514, K96S/S451D/S453D/S456D/S462D)
Technique: protein-binding microarray
Molecule type: double-stranded DNA, one strand shown
Sample: in vitro
Tested at: 250 nM
Notes: 60-bp whole probe
Together with: salmon DNA 0.4 mg/ml
Baseline: random background probes
Reading: higher = stronger binding
Constant ends, left off below: GCCTAGCAC … GTCTTGATTCGCTTGACGCTGCTG
| Sequence | log fluorescence |
| --- | --- |
| TTAGATATCCGACTGGATTAGTGCTAG | -0.0652 z-score |
| ATAGGTCTCGGACTGGGTTAGTGCTAG | -0.0283 z-score |
| CTCCCCTTGCTTTCCAATTCGTGCTAG | -0.000285 z-score |
| GCCGAACTGAGACTGGAGACGTGCTAG | -0.494 z-score |
| GGGCATTTAGAAAATGGAAATGTGCTA | -0.117 z-score |
| GACGATCTCAGTTTCGAGCCGTGCTAG | 3.62 z-score |
| TTAGAACTGGGGGATCGATTAGTGCTA | 0.59 z-score |
| GACGGCATCCTTATCCTGACGTGCTAG | -0.366 z-score |
| TCAAATGACCTTCTCAGACTGTGCTAG | -0.0514 z-score |
| GACGGTTGCGACACTGGGGACGTGCTA | -0.196 z-score |
| GACGGTCTCGGTATCCGGACGTGCTAG | 0.352 z-score |
| GACGAGATCGGGACTGGAGACGTGCTA | -0.266 z-score |
| TTAGATCTCAGACTGAATTAGTGCTAG | -0.053 z-score |
| GTCATTATCCTTGTCCCTCCGTGCTAG | 0.264 z-score |
| GTCGATTTCAGTTTCGAGACGTGCTAG | 7.94 z-score |
| TTAGAACAGAGTCTCGATTAGTGCTAG | 0.256 z-score |
| GAGATGATCCAGTTTTACCTGGTGCTA | -0.0706 z-score |
| GACGGTCGCGGTCTCGGGACGTGCTAG | -0.395 z-score |

Study 3
Target: Histone acetyltransferase KAT6A, winged helix 2, GST fusion (KAT6A, Homo sapiens, UniProt Q92794, residues 85-181)
Technique: protein binding microarray
Molecule type: double-stranded DNA, one strand shown
Sample: in vitro
Tested at: not given
Notes: 8-mer, flanks averaged, mean of 2 arrays, mostly near background
Baseline: not given
Reading: higher = stronger binding
Residues (chain): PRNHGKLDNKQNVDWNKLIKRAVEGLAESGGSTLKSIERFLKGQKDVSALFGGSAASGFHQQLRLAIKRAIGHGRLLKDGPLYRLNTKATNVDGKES
| Sequence | E-score |
| --- | --- |
| ACTGGCTG | -0.0231 |
| GTTTCGTA | 0.0824 |
| GGTATTTA | -0.129 |
| CGGAGCCC | 0.026 |
| CTAATGCA | 0.0524 |
| CGACGATC | 0.112 |
| CATATTTA | 0.0635 |
| AAAACTTC | 0.00579 |
| CCCTGTGA | -0.0288 |
| CATTCGGC | 0.164 |
| AAACGTCC | -0.142 |
| CAGACGAA | 0.117 |
| CCTTCACC | -0.138 |
| CCCGCCGG | 0.227 |
| CTGAGGAC | -0.0415 |
| GATCCTGA | -0.0173 |
| AGAGTGCC | -0.114 |
| GGCAGTGA | 0.135 |
| CAGCTATC | -0.138 |
| CACGGGAC | 0.11 |
| ATTAACCG | 0.174 |
| ACTTCCCA | -0.0144 |
| AACAGCTG | -0.0147 |
| CACTTCTC | -0.106 |
| GTGGGACA | 0.118 |

Study 4
Target: CCND2, cyclin fold, Cln2 fusion (human)
Technique: yeast growth competition, sequencing
Sample: yeast
Notes: weak parent motif
Baseline: not given
Reading: higher = stronger binding
Parent: CDC6 docking peptide (human); TLKGRRLVFDNQL; partner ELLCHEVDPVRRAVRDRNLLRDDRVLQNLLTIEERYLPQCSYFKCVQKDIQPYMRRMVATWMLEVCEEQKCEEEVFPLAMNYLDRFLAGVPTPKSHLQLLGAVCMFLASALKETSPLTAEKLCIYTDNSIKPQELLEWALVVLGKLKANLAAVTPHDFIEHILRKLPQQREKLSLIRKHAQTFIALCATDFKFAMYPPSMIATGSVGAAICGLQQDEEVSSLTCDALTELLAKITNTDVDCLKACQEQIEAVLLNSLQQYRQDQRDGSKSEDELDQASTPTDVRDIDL
| Substitution | normalised enrichment score |
| --- | --- |
| TLKGPRLVFDNQL [R5P] | 0.366 |
| TLKGRRPVFDNQL [L7P] | -0.205 |
| TLKFRRLVFDNQL [G4F] | 0.297 |
| TLKKRRLVFDNQL [G4K] | 0.303 |
| TLKGRYLVFDNQL [R6Y] | 0.244 |
| TLKGRRLVFDFQL [N11F] | 0.764 |
| TLKGRRLWFDNQL [V8W] | 0.299 |
| TLKGKRLVFDNQL [R5K] | 0.0303 |
| TGKGRRLVFDNQL [L2G] | 0.296 |
| LLKGRRLVFDNQL [T1L] | -0.13 |
| TLKGRRLVLDNQL [F9L] | -0.0983 |
| TLKGRDLVFDNQL [R6D] | 0.071 |
| TLKGRRLVFENQL [D10E] | -0.573 |

Study 5
Target: Prothrombin, mature alpha-thrombin (F2, Homo sapiens, UniProt P00734)
Technique: aptamer microarray, sandwich
Molecule type: DNA with 2'F-ANA
Sample: in vitro
Tested at: 200 nM
Notes: whole 15-mer aptamer, many near background
Together with: Cy3 exosite-II aptamer, 400 nM
Reading: higher = stronger binding
Sequence: GGTTGGTGTGGTTGG
| Modification | mean fluorescence intensity [a.u.] |
| --- | --- |
| 2'F-ANA at 1 2 6 7 9 10 13 | 48.8 |
| 2'F-ANA at 1 4 5 6 9 10 11 13 | 46.6 |
| 2'F-ANA at 1 2 6 7 8 9 10 11 12 13 14 | 50.9 |
| 2'F-ANA at 4 5 6 7 8 11 13 14 15 | 54.3 |
| 2'F-ANA at 1 2 4 5 6 8 9 | 76.2 |
| 2'F-ANA at 1 3 7 8 15 | 405 |
| 2'F-ANA at 1 3 8 9 13 | 262 |
| 2'F-ANA at 1 4 7 8 9 11 12 13 14 | 53.2 |
| 2'F-ANA at 1 2 3 5 8 9 11 13 14 15 | 46.7 |
| 2'F-ANA at 2 3 5 7 8 10 12 15 | 66.3 |
| 2'F-ANA at 1 2 9 11 15 | 148 |
| 2'F-ANA at 3 4 5 7 11 12 13 14 15 | 56.4 |
| 2'F-ANA at 1 2 3 4 8 12 13 | 333 |
| 2'F-ANA at 1 3 5 7 10 12 14 15 | 45.3 |
| 2'F-ANA at 1 3 4 6 8 9 10 13 15 | 58.2 |
| 2'F-ANA at 2 3 4 5 8 14 | 52.3 |
| 2'F-ANA at 2 4 6 9 10 12 13 15 | 105 |
| 2'F-ANA at 3 6 8 9 11 15 | 828 |
| 2'F-ANA at 1 2 3 6 7 9 10 13 | 61.6 |
| 2'F-ANA at 1 4 6 8 10 11 12 14 15 | 53.4 |
| 2'F-ANA at 2 6 7 9 12 15 | 633 |
| 2'F-ANA at 1 2 3 4 5 7 9 11 13 | 48.8 |
| 2'F-ANA at 2 3 6 8 15 | 761 |
| 2'F-ANA at 4 5 7 9 11 12 | 115 |
| 2'F-ANA at 2 3 6 8 9 10 | 325 |

Study 6
Target: RNA binding protein fox-1 homolog 2, RRM domain, GST-SBP tag (RBFOX2, Homo sapiens, UniProt O43251-10, residues 100-194)
Technique: RNA Bind-n-Seq
Molecule type: RNA
Sample: in vitro
Tested at: 365 nM
Notes: natural RNA segment, single round, ends assumed
Baseline: no-protein control
Reading: higher = stronger binding
Construct (chain): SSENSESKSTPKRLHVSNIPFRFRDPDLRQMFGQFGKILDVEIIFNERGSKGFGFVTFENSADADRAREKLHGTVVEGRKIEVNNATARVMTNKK
| Sequence | RBNS enrichment (R) |
| --- | --- |
| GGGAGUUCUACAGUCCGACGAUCCCAAGUGGCCUUGUCCCAGCUCCCCCUGCCCCCCCCAAGGCUGGUGUGAGUGUGCAAGUAUGUGUGCAGAGCUUGUGUUUCAUACUGCAGAUAUAAAUAAAGGAAGAUAGUGGAAUUCUCGGGUGCCAA | 1.29 |
| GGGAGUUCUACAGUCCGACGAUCUGGAAUUUCAGGAACUAUUGGAGCACGGCACAAUUGAUGCACAGGUAUUUCCUCCUGGCCCUUUUGGGUAUCAGCUUGCAGCUGGGAUACAGGCAUCUUAGAUAUUGCAGUGGAAUUCUCGGGUGCCAA | 4.01 |
| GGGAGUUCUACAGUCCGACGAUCUCUCCUUCCCCGGCUCGCAGGAGAGCAGAGCAGAGAACUGUGGGGAACGCUGUGCUGUUUGUAUUUGUUCCCUUGGGUUUUUUUUUCCUGCCUAAUUUCUGUGAUUUCCAUGGAAUUCUCGGGUGCCAA | 0.343 |
| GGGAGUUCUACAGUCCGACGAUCAAUGUAAAAUACUAUCUUUUAUGUCUAAAGCCAUUUUAUAUUACUUUUCAAUAAAAAGAAUAUCAUGGUCAACAUAGAAUAUUUUUCAUGAAUUGGUGGGGAGAUGUAUAUGGAAUUCUCGGGUGCCAA | 0.33 |
| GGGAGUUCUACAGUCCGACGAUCAUGUUAAUUGCUUCCCAGUUGGUUGACCUUAUAAGAAAACACUGUGUGGUAUUUUAAUGUGGUAAACAUGUGAAUGAAGGCCUGUGGCUCAGUUAAUCACUCCCACAACUUGGAAUUCUCGGGUGCCAA | 0.244 |
| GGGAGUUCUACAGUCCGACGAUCCAUGGUUCAUCACGAGCAUGAGGGAACAGCAAGGGGCACGGUAUCACAGCCUGGAGACACCCACACAGAUGGCUGGAUCCGGUGCUACGGGAAACAUUUUCCUAAGAUGCUGGAAUUCUCGGGUGCCAA | 2.24 |
| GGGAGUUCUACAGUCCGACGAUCAUUUCAGUCUUGAUGUUUGUUCUAUCAGACUUAACCUUUUAUUUCCUGUCCUUCCUUGAAAUUGCUGAUUGUUCUGCUCCCUCUACAGAUAUUUAUAUCAAUUCCUACAGUGGAAUUCUCGGGUGCCAA | 0.914 |
| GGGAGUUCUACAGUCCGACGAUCGCCGUUUGCAAGGGACUUGCUUUGCACAGUUUUGCUGUACUUUCACAUUUUAUUAUGUAGCAAGAUACAUGGUGAUUUUUUUUUUUUUCAUUUAGCCUGAUUUUCCAACGUGGAAUUCUCGGGUGCCAA | 0.989 |
| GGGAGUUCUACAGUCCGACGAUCUUUGAGUAAUAUAUUUUUAAGAACACCACUGGUCCUGUAAGUCUUGCCUCCUUGGCUUCUACUAGAGCAAAAUCUGCUGCCAAGUCAGCCUGGUUUCUGGUUGUGUUCUUUGGAAUUCUCGGGUGCCAA | 0.266 |
| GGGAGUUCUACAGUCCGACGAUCUUCACUGACCAUUGAGGGACUACAGAAAUCAGAAAUGGAUCCAAACUCAGAAGAGACCAUCCAAUCAUGAGCAAGUGACCCAGUCCCCUUUCCUCUCUGUAGAGGGAUGAUGGAAUUCUCGGGUGCCAA | 0.256 |
| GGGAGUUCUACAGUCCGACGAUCACUGAGGGCUCUGCGUCCCUGCAGUAAACAGGUGAGAUCUGCAGCAGGGCAGGGCUGCUUUAACAGGCAGGGGUGGCAGUAAGUCACAGCUGCUGCUGCUGUCGUCUGCCUGGAAUUCUCGGGUGCCAA | 0.441 |
| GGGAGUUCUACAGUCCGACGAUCAACUGCUUUUAUGCAGGCUUUACCCCUGAAAAACUCCUUUCUACAGUGCUGCUCACGAGAGCCCAGCCAGUCUCAUGCCUGCAUUGCUGACUUGAACUCACAGUCGCCAAUGGAAUUCUCGGGUGCCAA | 0.425 |
